Measurements pooled from the literature.
Compare with care: the assays were run in different laboratories. ± gives the spread as reported.
CA1: Carbonic anhydrase 1 (CA1, Homo sapiens, UniProt P00915)
Oprd1: Delta-type opioid receptor (Oprd1, Rattus norvegicus, UniProt P33533)
OPRK1: Kappa-type opioid receptor (OPRK1, Cavia porcellus, UniProt P41144)
WDR5: WD repeat-containing protein 5 (WDR5, Homo sapiens, UniProt P61964)
DRD2 long isoform: D(2) dopamine receptor, long isoform (DRD2, Homo sapiens, UniProt P14416)
CNR1: Cannabinoid receptor 1 (CNR1, Homo sapiens, UniProt P21554)

`O=S(=O)(N/N=C/c1ccc(OS(=O)(=O)c2ccc(Br)cc2)cc1)c1ccc(Cl)cc1` gave a Ki of 16.7 nM (CA1; enzyme activity, inhibitor, absorbance).
With `N=C(N)NCCC[C@H]1NC(=O)[C@@H](Cc2ccc(O)cc2)NC(=O)[C@H](CCCCN)NC(=O)[C@H](Cc2ccccc2)NC1=O` the Ki was over 10000 nM (Oprd1; ligand displacement, radioligand; cell membranes).
`CC(C)CCCC(C)C1CCC2C3CCC4CC(OC5OC(C)C(OC6OC(C)C(OC7OC(C)C(OC8OC(C)C(OS(=O)(=O)O)C(OS(=O)(=O)O)C8OS(=O)(=O)O)C(OS(=O)(=O)O)C7OS(=O)(=O)O)C(OS(=O)(=O)O)C6OS(=O)(=O)O)C(OS(=O)(=O)O)C5OS(=O)(=O)O)CCC4(C)C3CCC12C` (stereo not drawn) has a Ki of 2.3 nM (Heparanase (HPSE, Homo sapiens, UniProt Q9Y251); enzyme activity, inhibitor).
For `Cc1cc(O)cc(C)c1C[C@H](N)C(=O)N[C@@H]1CCCCC[C@@H](C(N)=O)NC(=O)[C@H](Cc2ccccc2)NC(=O)[C@H](Cc2ccccc2)NC1=O`, the Ki was 15.8 nM (OPRK1; ligand displacement, radioligand; cell membranes).
`Cc1cc(O)cc(C)c1C[C@H](N)C(=O)N[C@H](CCCNC(=N)N)C(=O)N[C@@H](Cc1ccccc1)C(=O)N(C)CC(=O)N(C)Cc1cc(C(F)(F)F)cc(C(F)(F)F)c1` gave a Ki of 106 nM (Delta-type opioid receptor (OPRD1, Homo sapiens, UniProt P41143, V281A)).
The Ki of `Cc1cc(O)cc(C)c1C[C@H](N)C(=O)N[C@H](CCCNC(=N)N)C(=O)N[C@@H](Cc1ccccc1)C(=O)N[C@@H](CCCCN)C(=O)N[C@H]1CCCC[C@@H]1NC(=O)[C@H](Cc1ccccc1)NC(=O)[C@H](CC1CCCCC1)NC[C@@H]1Cc2ccccc2CN1C(=O)[C@@H](N)Cc1ccc(O)cc1` is reported as 21.8 nM (Oprd1; ligand displacement, radioligand; cell membranes).
With `N[C@H]1CCSC1=O` the Ki was over 100000 nM (CA1; enzyme activity, inhibitor, stopped-flow).
`CC[C@@H]1NC(=O)[C@H](CCCNC(=N)N)NC(=O)[C@H](NC(=O)C(C)C)CNC(=O)c2cc(F)c(c(F)c2)N=Nc2c(F)cc(cc2F)C(=O)NCCNC(=O)[C@@H](Cc2ccccc2)NC1=O` gave a Ki of 104 nM (WDR5; binding, inhibitor, competitive fluorescence polarization; cis isomer, 520 nm photostationary state).
`CN(C)[C@H](CNC(=O)/C=C/c1cccc2ccccc12)Cc1ccc(O)cc1` has a Ki of 6500 nM (Muscarinic acetylcholine receptor M2 (CHRM2, Homo sapiens, UniProt P08172); cell-free assay).
With `O=S(=O)(F)c1cccc(S(=O)(=O)Nc2ccc(C3CC3)c(F)c2)c1` the Ki was 151000 nM (GTPase KRas (KRAS, Homo sapiens, UniProt P01116); cell-free assay).
The Ki of `COc1cc2c(cc1O)C(CCc1ccc(Cl)cc1)N(C)CC2` (stereo not drawn) is reported as 1000 nM (Sodium-dependent serotonin transporter (SLC6A4, Homo sapiens, UniProt P31645); cell-free assay, radioligand).
`CC[C@@H]1NC(=O)[C@H](CCCNC(=N)N)NC(=O)[C@H](NC(=O)C(C)C)CCCCNC(=O)c2cc(F)c(c(F)c2)N=Nc2c(F)cc(cc2F)C(=O)NCCNC(=O)[C@@H](Cc2ccccc2)NC1=O` gave a Ki of 137 nM (WDR5; binding, inhibitor, competitive fluorescence polarization; cis isomer, 520 nm photostationary state).
`O=C1NC2(CC2)COc2ncc(F)cc2[C@H]2COCCN2c2ccn3ncc1c3n2`: “alkaline phosphatase activity” 102 ± 9.4 U/L (Sprague-Dawley rat, male, serum; oral, 5 mg/kg/day, 4 weeks daily, end of recovery period).
For `Cc1cc(O)cc(C)c1C[C@H](N)C(=O)N[C@H](CCCNC(=N)N)C(=O)N[C@@H](Cc1ccccc1)C(=O)N[C@@H](CCCCNC(=O)CN1CCN(CC(=O)O)CCN(CC(=O)O)CCN(CC(=O)O)CC1)C(N)=O`, the Ki was 160 ± 22 nM (OPRK1; guinea pig).
The Ki of `O=[N+]([O-])c1ccc(S(=O)(=O)Oc2ccc(/C=N/NS(=O)(=O)c3cc(Cl)ccc3Cl)cc2)cc1` is reported as 9.12 nM (CA1; enzyme activity, inhibitor, absorbance).
`COC1c2cc(C(C)C)c(O)c(O)c2C23CCCC(C)(C)C2C1OC3=O` (stereo not drawn) has a Ki of 2.3 nM (Cholinesterase (BCHE, Homo sapiens, UniProt P06276); enzyme activity, inhibitor, absorbance).
`NC(=O)[C@@H]1CC/C=C\C[C@@H](NC(=O)[C@@H](N)Cc2ccc(O)cc2)C(=O)N[C@@H](Cc2ccccc2)C(=O)N[C@@H](Cc2ccccc2)C(=O)N1` has a Ki of 0.91 nM (Oprd1; ligand displacement, radioligand; cell membranes).
With `COc1ccc2c(c1)c(CCN(C)C)cn2S(=O)(=O)c1ccccc1` the Ki was 352 ± 47 nM (DRD2 long isoform; binding, radioligand displacement; HEK293 membranes; 1 h, 37 °C, added: [3H]-raclopride).
`O=S(=O)(N/N=C/c1ccc(OS(=O)(=O)c2ccc(Cl)cc2)cc1)c1cc(Cl)ccc1Cl` gave a Ki of 24.4 nM (CA1; enzyme activity, inhibitor, absorbance).
With `Cc1cc(O)cc(C)c1CCC(=O)N[C@@H]1CCCCC[C@@H](C(N)=O)NC(=O)[C@H](Cc2ccccc2)NC(=O)[C@H](Cc2ccccc2)NC1=O` the Ki was over 500 nM (OPRK1; ligand displacement, radioligand; cell membranes).
With `CC[C@@H]1NC(=O)[C@H](CCCNC(=N)N)NC(=O)[C@H](NC(=O)C(C)C)CCCCNC(=O)c2cc(F)c(c(F)c2)N=Nc2c(F)cc(cc2F)C(=O)NCCNC(=O)[C@@H](c2ccccc2)NC1=O` the Ki was 239 nM (WDR5; binding, inhibitor, competitive fluorescence polarization; cis isomer, 520 nm photostationary state).
`Cc1cc(O)cc(C)c1C[C@H](N)C(=O)N[C@H](CCCNC(=N)N)C(=O)N[C@@H](Cc1ccccc1)C(=O)N[C@@H](CCCCN)C(=O)NNC(=O)[C@H](Cc1ccccc1)NC(=O)[C@H](CC1CCCCC1)NC[C@@H]1Cc2ccccc2CN1C(=O)[C@@H](N)Cc1ccc(O)cc1` gave a Ki of 2.28 nM (Oprd1; ligand displacement, radioligand; cell membranes).
`CCOC(=O)C(CC)(CC)NC(=O)c1ccc(C2CC2)c(Cc2ccc(F)cc2)n1` gave a Ki of 5.4 nM (CNR1; ligand displacement, radioligand; cell membranes).
`O=S(=O)(N/N=C/c1ccc(OS(=O)(=O)c2ccc(Br)cc2)cc1)c1cc(Cl)ccc1Cl` has a Ki of 342 nM (CA1; enzyme activity, inhibitor, absorbance).
For `COc1ccccc1N1CCN(CCCCN2CCCc3ccccc3C2=O)CC1`, the Ki was 7.2 nM (Alpha-1A adrenergic receptor (ADRA1A, Homo sapiens, UniProt P35348); ligand displacement, radioligand).
`NC(=O)[C@@H]1CCCCC[C@@H](NC(=O)[C@@H](N)Cc2ccc(O)cc2)C(=O)N[C@@H](Cc2ccccc2)C(=O)N[C@@H](Cc2ccccc2)C(=O)N1` has a Ki of 2.24 nM (Oprd1; ligand displacement, radioligand; cell membranes).
With `CN1CCN(c2cn(Cc3ccccc3)c3ccccc23)CC1` the Ki was 35 ± 4 nM (DRD2 long isoform; binding, radioligand displacement; HEK293 membranes; 1 h, 37 °C, added: [3H]-raclopride).
The Ki of `Cc1cc(O)cc(C)c1CCC(=O)N[C@@H]1C/C=C/CC[C@@H](C(N)=O)NC(=O)[C@H](Cc2ccccc2)NC(=O)[C@H](Cc2ccccc2)NC1=O` is reported as over 500 nM (OPRK1; ligand displacement, radioligand; cell membranes).
`Cc1cc(O)cc(C)c1C[C@H](N)C(=O)N[C@H](CCCNC(=N)N)C(=O)N[C@@H](Cc1ccccc1)C(=O)N[C@@H](CCCCN)C(=O)NCCCCCC(=O)N[C@@H](CCCCNC(=O)CN1CCN(CC(=O)O)CCN(CC(=O)O)CCN(CC(=O)O)CC1)C(N)=O` gave a Ki of 185 nM (OPRK1; ligand displacement, radioligand; cell membranes).
For `CCCCCn1ccc(C(=O)NC(C)(C)c2ccc(CNC(C)=O)cc2)n1`, the Ki was 1120 nM (CNR1; ligand displacement, radioligand).
With `Cc1cc(O)cc(C)c1C[C@H](N)C(=O)N[C@@H]1C/C=C\CC[C@@H](C(N)=O)NC(=O)[C@H](Cc2ccccc2)NC(=O)[C@H](Cc2ccccc2)NC1=O` the Ki was 12.8 nM (OPRK1; ligand displacement, radioligand; cell membranes).
For `Cc1cc(O)cc(C)c1C[C@H](N)C(=O)N[C@H](CCCNC(=N)N)C(=O)N[C@@H](Cc1ccccc1)C(=O)N[C@@H](CCCCN)C(=O)NCCCCCCCCCCNC(=O)[C@H](Cc1ccccc1)NC(=O)[C@H](CC1CCCCC1)NC[C@@H]1Cc2ccccc2CN1C(=O)[C@@H](N)Cc1ccc(O)cc1`, the Ki was 15.3 nM (Oprd1; ligand displacement, radioligand; cell membranes).
`CC[C@@H]1NC(=O)[C@H](CCCNC(=N)N)NC(=O)[C@H](NC(=O)C(C)C)CCNC(=O)c2cc(F)c(c(F)c2)N=Nc2c(F)cc(cc2F)C(=O)NCCNC(=O)[C@@H](Cc2ccccc2)NC1=O` gave a Ki of 79 nM (WDR5; binding, inhibitor, competitive fluorescence polarization; trans isomer, 405 nm photostationary state).
`C[C@@H](Cc1ccsc1)NC(=O)NC[C@H](Cc1ccc(O)cc1)N(C)C` has a Ki of over 50000 nM (Orexin receptor type 2 (HCRTR2, Homo sapiens, UniProt O43614)).
`COc1c(C(C)C)cc2c(c1O)[C@@]1(C(=O)O)CCCC(C)(C)C1CC2` (stereo partly drawn) has a Ki of 3.57 nM (Acetylcholinesterase (ACHE, Homo sapiens, UniProt P22303); enzyme activity, inhibitor).
For `O=C1c2ccccc2CCCN1CCCCN1CCN(c2cccc(Cl)c2Cl)CC1`, the Ki was 1 nM (D(3) dopamine receptor (DRD3, Homo sapiens, UniProt P35462); ligand displacement, radioligand).

For quick reference, copied from above:
With `N=C(N)NCCC[C@H]1NC(=O)[C@@H](Cc2ccc(O)cc2)NC(=O)[C@H](CCCCN)NC(=O)[C@H](Cc2ccccc2)NC1=O` the Ki was over 10000 nM (Oprd1; ligand displacement, radioligand; cell membranes).
`CC(C)CCCC(C)C1CCC2C3CCC4CC(OC5OC(C)C(OC6OC(C)C(OC7OC(C)C(OC8OC(C)C(OS(=O)(=O)O)C(OS(=O)(=O)O)C8OS(=O)(=O)O)C(OS(=O)(=O)O)C7OS(=O)(=O)O)C(OS(=O)(=O)O)C6OS(=O)(=O)O)C(OS(=O)(=O)O)C5OS(=O)(=O)O)CCC4(C)C3CCC12C` (stereo not drawn) has a Ki of 2.3 nM (Heparanase (HPSE, Homo sapiens, UniProt Q9Y251); enzyme activity, inhibitor).
For `Cc1cc(O)cc(C)c1C[C@H](N)C(=O)N[C@@H]1CCCCC[C@@H](C(N)=O)NC(=O)[C@H](Cc2ccccc2)NC(=O)[C@H](Cc2ccccc2)NC1=O`, the Ki was 15.8 nM (OPRK1; ligand displacement, radioligand; cell membranes).
